Measured values collected from several papers.
Each numbered part is a random draw from the data of one study; scales do not carry over between parts. Changes are numbered by the printed parent chain.

Sample 1 — target: ATF3, bZIP domain (human); technique: DHFR protein complementation; medium: yeast; relative to: wild-type JUN-FOS pair; reading: higher = stronger binding
Notes: single substitutions, most at no-binding floor
Starting sequence: JUN, bZIP domain (human); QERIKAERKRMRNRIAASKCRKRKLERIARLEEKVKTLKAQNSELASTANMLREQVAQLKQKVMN; partner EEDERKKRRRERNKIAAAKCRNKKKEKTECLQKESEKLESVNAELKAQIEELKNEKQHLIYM
| Variant | binding fitness |
| --- | --- |
| V35S | -0.954 natural log |
| Q55H | -0.265 natural log |
| R53V | -0.362 natural log |
| A40I | -0.152 natural log |
| A29F | -0.235 natural log |
| T48R | -0.117 natural log |
| L31I | -0.417 natural log |
| E33W | -0.309 natural log |
| A29C | -0.264 natural log |
| L45N | -1.34 natural log |
| K39D | -0.678 natural log |
| A46V | -0.0623 natural log |
| Q55R | -0.609 natural log |
| I28L | -0.114 natural log |
| K36A | -0.00997 natural log |
| V56R | -1.34 natural log |

Sample 2 — technique: competition protein-binding microarray; molecule type: double-stranded DNA, one strand shown; medium: in vitro; tested at: 2 µM; added: Cbf1 competitor, 0.05 µM; reading: higher = stronger binding
Target: Phosphate system positive regulatory protein PHO4, full length, GST-tagged (PHO4, Saccharomyces cerevisiae, UniProt P07270, residues 1-312)
Notes: whole 60-bp probe, lowest competitor level
Construct (chain): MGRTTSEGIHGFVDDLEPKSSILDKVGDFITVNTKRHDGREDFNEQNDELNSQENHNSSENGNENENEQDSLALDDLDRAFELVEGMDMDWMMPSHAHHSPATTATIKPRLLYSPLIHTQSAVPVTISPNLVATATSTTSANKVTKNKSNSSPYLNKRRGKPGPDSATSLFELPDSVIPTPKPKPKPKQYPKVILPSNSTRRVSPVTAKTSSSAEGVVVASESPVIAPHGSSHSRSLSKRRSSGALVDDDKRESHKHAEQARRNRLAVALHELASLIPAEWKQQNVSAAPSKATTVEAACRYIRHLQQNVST
| Strand | fluorescence intensity [a.u.] |
| --- | --- |
| TACTAGCACTGCCACACCGTGCAATCCATACAGGATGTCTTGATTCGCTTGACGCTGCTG | 7650 |
| CTTTCCCGATCTTACCACGTGTTTTTAGCACATTTGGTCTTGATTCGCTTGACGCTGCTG | 18300 |
| TGCGCAACAACTTGTCACTACACTTTATGTCTAGAAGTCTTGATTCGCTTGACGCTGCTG | 3320 |
| CGGGGTTAAGTTTGTCACCTCACTTGCTTGCAGCAGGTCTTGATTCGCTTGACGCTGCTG | 3250 |
| TGACTCACCCCCGGCCACGTGGCCGGTAGGAGGCCCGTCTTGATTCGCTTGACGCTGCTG | 14200 |
| CTTTCCCGATCTTGCTCGGTGGGTGTAGCACATTTGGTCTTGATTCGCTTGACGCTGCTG | 4570 |
| TCGAGGACGTATTGGCAGGTGAAGTTTTCAGCAACTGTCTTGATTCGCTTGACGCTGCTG | 3070 |
| GTGAACTACAACAAAAAGAGAAGGCTGGTAAGGGCAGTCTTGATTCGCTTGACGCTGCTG | 3340 |
| AGACGGGGATCATCTTGCATGACAGTGCTAACATTTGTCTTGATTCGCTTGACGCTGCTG | 4420 |
| TGACGGCGAAGCTCGCACGTGCGCAGCCCGGGGGCGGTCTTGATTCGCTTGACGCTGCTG | 18600 |
| CCGGCGACCTCCAAGCGCGTGCCAGGTGGGCCCCTCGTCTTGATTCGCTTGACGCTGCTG | 10800 |
| GTCTTGTCTCATTGTAAAGTGGGTGTCCCCACTTCAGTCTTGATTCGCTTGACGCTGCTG | 4730 |
| GTCCCACACTACTGGCACGTTTTCTTGATTTTTGTCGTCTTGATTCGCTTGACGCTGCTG | 14900 |
| CATACCCAACCTTGCTTTGTGGGTGAAGATATTTGTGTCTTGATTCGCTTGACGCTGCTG | 3870 |
| ACCTTGAGCTCGAAAAATGTGACGGATACTTTTTCCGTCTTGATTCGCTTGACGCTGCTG | 4250 |
| GAAAGCCTGGTAGGACACGTGATGGCTTGTTCGCCAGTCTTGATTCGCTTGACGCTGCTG | 15400 |
| GTCTTGTCTCATTGGGGTGTGGGTGTCCCCACTTCAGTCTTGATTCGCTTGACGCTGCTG | 7300 |
| CGGGGTTAAGTTTGTCACGTGGGTGGCTTGCAGCAGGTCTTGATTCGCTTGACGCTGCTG | 17200 |
| CGGGGTTAAGTTTGTCACTAGACTTGCTTGCAGCAGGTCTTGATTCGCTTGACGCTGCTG | 3290 |
| TGATTTCTCTATTTTATATTGCCTATTATTTTTTCAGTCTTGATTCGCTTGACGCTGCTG | 2810 |
| AAAAAATAAGCTTTTCTCGTGCCGAGAGTGGTGTACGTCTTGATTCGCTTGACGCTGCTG | 6070 |
| TGCGCAACAACTTGACATGTGGGTGTATGTCTAGAAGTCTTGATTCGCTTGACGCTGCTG | 11200 |
| CTTCTGTAAATTTTTCACGTGGGGTGAAGCGCCCCGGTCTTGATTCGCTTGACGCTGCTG | 13500 |
| CTTTCCCGATCTTGTCTAGTGGGTGTAGCACATTTGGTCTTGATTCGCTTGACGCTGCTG | 5420 |

Sample 3 — technique: DHFR PCA, deep sequencing; medium: yeast; added: (+)-ABA 0 µM; relative to: wild-type fitted maximum; reading: higher = stronger binding
Target: ABI1, truncated, D143A, DHFR fusion (Arabidopsis thaliana)
Notes: methotrexate growth selection, single substitutions
Starting sequence: PYL1, truncated, DHFR fusion (Arabidopsis thaliana); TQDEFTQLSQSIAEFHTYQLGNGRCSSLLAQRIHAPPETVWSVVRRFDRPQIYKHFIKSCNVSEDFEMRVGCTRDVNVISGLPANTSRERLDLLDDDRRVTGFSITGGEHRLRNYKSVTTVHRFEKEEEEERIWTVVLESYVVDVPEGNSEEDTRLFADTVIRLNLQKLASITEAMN; partner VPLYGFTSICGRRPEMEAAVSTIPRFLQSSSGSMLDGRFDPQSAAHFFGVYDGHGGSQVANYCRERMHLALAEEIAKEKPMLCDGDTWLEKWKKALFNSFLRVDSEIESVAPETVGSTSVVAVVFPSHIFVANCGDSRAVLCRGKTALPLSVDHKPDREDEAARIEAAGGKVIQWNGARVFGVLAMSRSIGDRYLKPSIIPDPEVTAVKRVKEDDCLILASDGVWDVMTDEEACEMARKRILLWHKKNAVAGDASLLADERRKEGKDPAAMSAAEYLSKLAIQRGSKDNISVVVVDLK
| Variant | relative binding score |
| --- | --- |
| S11P | 35.4% |
| D48M | -0.518% |
| Y18D | -1.18% |
| D153K | -4.89% |
| Q31A | 2.51% |
| V137P | 1.05% |
| I57G | 0.219% |
| T86A | 6.55% |
| N85F | 56.1% |
| G71A | 4.22% |
| Q51F | -2.19% |
| T154L | -6.74% |
| A13S | 23.1% |
| I162E | 4.34% |
| V118E | -6.8% |
| S140K | 0.381% |
| G81A | 13.9% |
| S80H | 30.2% |
| T173G | -4.65% |
| A175I | -2.98% |
| E174C | -3.07% |
| Y18N | -0.207% |
| F124S | 4.51% |
| A30Y | 9.46% |
| R88P | -1.82% |

Sample 4 — technique: RNA Bind-n-Seq; molecule type: RNA; medium: in vitro; tested at: 200 nM; notes: whole 134-nt RNA, ends assumed; added: 150 mM KCl; relative to: input library; reading: higher = stronger binding
Target: Ras GTPase-activating protein-binding protein 1, full length (G3BP1, Homo sapiens, UniProt Q13283)
Chain of UniProt Q13283 (whole entry, looked up): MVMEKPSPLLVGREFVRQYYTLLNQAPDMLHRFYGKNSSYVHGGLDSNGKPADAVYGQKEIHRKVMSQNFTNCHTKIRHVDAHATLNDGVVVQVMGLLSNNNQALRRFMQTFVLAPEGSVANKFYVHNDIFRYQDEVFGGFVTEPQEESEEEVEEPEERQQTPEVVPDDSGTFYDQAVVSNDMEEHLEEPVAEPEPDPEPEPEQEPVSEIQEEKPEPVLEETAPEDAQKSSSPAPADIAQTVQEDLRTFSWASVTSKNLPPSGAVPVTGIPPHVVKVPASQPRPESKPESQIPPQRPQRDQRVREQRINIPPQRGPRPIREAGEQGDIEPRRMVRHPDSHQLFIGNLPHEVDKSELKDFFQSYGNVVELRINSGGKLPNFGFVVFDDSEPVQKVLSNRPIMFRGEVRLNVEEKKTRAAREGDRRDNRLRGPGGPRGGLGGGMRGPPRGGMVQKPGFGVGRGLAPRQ
| Strand | log2 enrichment |
| --- | --- |
| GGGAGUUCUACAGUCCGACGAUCCCUCAAGUCCUGUGCUACACAUCGUAUGUACCGAAUCGGGCGGGGCGGGGCGGAAAGUAUUAUGUUACGCCGUUCGGAUCUGCACUUCCAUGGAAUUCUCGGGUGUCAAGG | 0.539 |
| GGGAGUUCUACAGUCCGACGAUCUGGCCCUGGUGUCAUGCGGGGAGGAAGAGGUGGCCUCAUGGAUCGUGGUGGUCCCGGUGGAAUGUUCAGAGGUGGCCGUGGUGGAGACAGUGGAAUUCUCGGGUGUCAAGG | 0.00105 |
| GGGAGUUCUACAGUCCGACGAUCCUGUGCUACACAUCGUAUGUACCGAAUCGGCCCCCCCGGCCCCCCCGGGGCCCCCCCGGGGAAAGUAUUAUGUUACGCCGUUCGGAUCUGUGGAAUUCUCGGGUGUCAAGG | -0.671 |
| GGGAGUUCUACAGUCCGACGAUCGUCAAGUGCUUCUGCUCCUGAUGUGGAUGACCCAGAGGCAUUCCCAGCUCUGGCUUAACUGGAUGCCAUAAGACAACCCUGGUUCCUUUGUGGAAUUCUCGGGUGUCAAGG | 0.51 |
| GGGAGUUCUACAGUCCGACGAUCACCAUGCAGGUGGGCAUCUUUGGGAAGUGGGGCAAGGGGGGGAUAGGGAGGGGGGUAACACUUUGGGAAAAAGUGGUCCCAGGUCGUUUCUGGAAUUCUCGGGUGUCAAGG | 1.3 |
| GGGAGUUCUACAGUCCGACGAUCCACAGACAACACGCACCCACACAGACACAGAGGGAAGGGGUUGGGAUGAAAACAGGGUGCACAGCAGGGCGGGGUAGGACCCCAGCCCCUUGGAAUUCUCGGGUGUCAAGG | 1.06 |
| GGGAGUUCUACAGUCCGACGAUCCACAGACAACACGCACCCACACAGACACAGAGGGAAGGGGUUGGGAUGGGGACAAAAUGCACAGCAGGGCGGGGUAGGACCCCAGCCCCUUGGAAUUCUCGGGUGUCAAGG | 1.94 |
| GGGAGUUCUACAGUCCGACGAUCGCAGGAAGUUAAAACAAAUGGAAAUGCUUCGGAUAGUGGCAGGGGUGGGGGUUGCUAAGGAAAGGGUGGGAUGGGAGUGGGUAAAGAGUUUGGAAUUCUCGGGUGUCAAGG | 0.883 |
| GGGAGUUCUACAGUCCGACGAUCAAGUCCUGUGCUACACAUCGUAUGUACCGAAUCGGAAAAAGGUUUGGUUUUUUUGGAAAGUAUUAUGUUACGCCGUUCGGAUCUGCACUUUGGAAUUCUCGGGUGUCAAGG | -1.25 |
| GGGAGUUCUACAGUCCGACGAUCGCAGGAAGUAAAAACAAAUGGAAAUGCUUCGGAUAGCGGCAGGGGUGGGGGUUGCUAAGGAAAGGGUGGGAUGGGAGUGGGUAAAGAGUUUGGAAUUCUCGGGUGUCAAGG | 1.05 |
| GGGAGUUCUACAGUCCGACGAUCUGGCGCCGUUCGACACCAGGCGGAUCCGCUCUGCAGCACGAACCCAUCUCCAGCCGCAGCCGCAGCCGCCGCCCGGGCCGAGGAGCAGCCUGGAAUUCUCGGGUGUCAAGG | -0.183 |
| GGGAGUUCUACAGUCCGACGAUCUGUGCUACACAUCGUAUGUACCGAAUCGGGUUUUUUUGGGGUUUUUUUGGGGUUUUUUUGGGGAAAGUAUUAUGUUACGCCGUUCGGAUCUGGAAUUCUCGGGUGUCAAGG | -0.658 |
| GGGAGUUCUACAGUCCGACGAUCAGUCCUGUGCUACACAUCGUAUGUACCGAAUCAAAGUGUGUGUGUGUGUGUGUGUAAAAAAGUAUUAUGUUACGCCGUUCGGAUCUGCACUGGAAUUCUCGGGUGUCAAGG | 0.272 |
| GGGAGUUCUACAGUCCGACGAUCUGGGAGGUGGAUUUUGUUUAUUUUUUUAGCUCAUUUCCAGGGGUGGGAAUUUUUUUAUAAUAUGUGUCAUGAAUAAAGUUGUUUUUGAAAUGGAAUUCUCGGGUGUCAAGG | 0.403 |

Sample 5 — target: CCNA2, cyclin fold, Cln2 fusion (human); technique: yeast growth competition, sequencing; medium: yeast; notes: strong parent motif; relative to: not given; reading: higher = stronger binding
Starting sequence: WEE1 docking peptide (human); HKTFRKLRLFDTP
| Variant | normalised enrichment score |
| --- | --- |
| HKTFRKMRLFDTP [L7M] | 0.876 |
| HKTFRILRLFDTP [K6I] | 1.46 |
| HKTFRKLRLFGTP [D11G] | 0.258 |
| HKTFRKLRLIDTP [F10I] | 1.69 |
| HKTFRKLRLLDTP [F10L] | 1.03 |
| HKYFRKLRLFDTP [T3Y] | 1.19 |
| HKTLRKLRLFDTP [F4L] | 1.68 |
| HKCFRKLRLFDTP [T3C] | 0.599 |
| HKTFRKLRLFDLP [T12L] | 0.837 |
| HKTFRKLRLADTP [F10A] | 1.28 |
| HKTFRKLRLFDFP [T12F] | 2.49 |
| HKTFRKLRLDDTP [F10D] | 0.746 |
| HKTFRGLRLFDTP [K6G] | 2.63 |
| HKIFRKLRLFDTP [T3I] | 1.64 |
| HKTFSKLRLFDTP [R5S] | 1.23 |
| HKTFLKLRLFDTP [R5L] | 2.15 |
| HKTFRKLRLQDTP [F10Q] | -0.192 |
| HKTSRKLRLFDTP [F4S] | 1.35 |
| HKTFRDLRLFDTP [K6D] | 1.3 |
| HKTFRKLRLSDTP [F10S] | 0.93 |
| HKTFRLLRLFDTP [K6L] | 1.35 |
| HKTFRKLRLFDTR [P13R] | 0.49 |
| NKTFRKLRLFDTP [H1N] | 0.545 |
| HKTFRKLRVFDTP [L9V] | 1.06 |
| LKTFRKLRLFDTP [H1L] | 0.151 |
